# Assay results pooled from the literature.
# Lines come from different studies, so protocols differ. Numbers after ± are the reported error.
# ACHE: Acetylcholinesterase (ACHE, Homo sapiens, UniProt P22303)
# UniProt P22303, sequence (whole entry, looked up): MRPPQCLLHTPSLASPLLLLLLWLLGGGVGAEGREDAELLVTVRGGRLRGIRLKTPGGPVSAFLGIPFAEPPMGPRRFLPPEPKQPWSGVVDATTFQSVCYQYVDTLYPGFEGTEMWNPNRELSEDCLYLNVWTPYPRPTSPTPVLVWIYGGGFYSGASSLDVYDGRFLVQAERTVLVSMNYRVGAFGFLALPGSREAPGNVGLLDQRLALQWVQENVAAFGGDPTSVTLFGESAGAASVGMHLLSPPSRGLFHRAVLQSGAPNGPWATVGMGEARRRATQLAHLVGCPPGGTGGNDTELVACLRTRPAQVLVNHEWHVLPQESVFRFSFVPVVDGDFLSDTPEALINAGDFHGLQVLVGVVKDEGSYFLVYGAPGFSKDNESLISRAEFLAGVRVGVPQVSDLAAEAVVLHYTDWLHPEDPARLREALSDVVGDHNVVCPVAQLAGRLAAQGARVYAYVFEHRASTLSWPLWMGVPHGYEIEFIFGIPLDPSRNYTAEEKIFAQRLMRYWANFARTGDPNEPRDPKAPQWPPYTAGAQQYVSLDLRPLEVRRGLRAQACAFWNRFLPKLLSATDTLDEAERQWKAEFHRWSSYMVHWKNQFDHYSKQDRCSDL
# lacZ: Beta-galactosidase (lacZ, Escherichia coli K-12, UniProt P00722)
# UniProt P00722, sequence (whole entry, looked up): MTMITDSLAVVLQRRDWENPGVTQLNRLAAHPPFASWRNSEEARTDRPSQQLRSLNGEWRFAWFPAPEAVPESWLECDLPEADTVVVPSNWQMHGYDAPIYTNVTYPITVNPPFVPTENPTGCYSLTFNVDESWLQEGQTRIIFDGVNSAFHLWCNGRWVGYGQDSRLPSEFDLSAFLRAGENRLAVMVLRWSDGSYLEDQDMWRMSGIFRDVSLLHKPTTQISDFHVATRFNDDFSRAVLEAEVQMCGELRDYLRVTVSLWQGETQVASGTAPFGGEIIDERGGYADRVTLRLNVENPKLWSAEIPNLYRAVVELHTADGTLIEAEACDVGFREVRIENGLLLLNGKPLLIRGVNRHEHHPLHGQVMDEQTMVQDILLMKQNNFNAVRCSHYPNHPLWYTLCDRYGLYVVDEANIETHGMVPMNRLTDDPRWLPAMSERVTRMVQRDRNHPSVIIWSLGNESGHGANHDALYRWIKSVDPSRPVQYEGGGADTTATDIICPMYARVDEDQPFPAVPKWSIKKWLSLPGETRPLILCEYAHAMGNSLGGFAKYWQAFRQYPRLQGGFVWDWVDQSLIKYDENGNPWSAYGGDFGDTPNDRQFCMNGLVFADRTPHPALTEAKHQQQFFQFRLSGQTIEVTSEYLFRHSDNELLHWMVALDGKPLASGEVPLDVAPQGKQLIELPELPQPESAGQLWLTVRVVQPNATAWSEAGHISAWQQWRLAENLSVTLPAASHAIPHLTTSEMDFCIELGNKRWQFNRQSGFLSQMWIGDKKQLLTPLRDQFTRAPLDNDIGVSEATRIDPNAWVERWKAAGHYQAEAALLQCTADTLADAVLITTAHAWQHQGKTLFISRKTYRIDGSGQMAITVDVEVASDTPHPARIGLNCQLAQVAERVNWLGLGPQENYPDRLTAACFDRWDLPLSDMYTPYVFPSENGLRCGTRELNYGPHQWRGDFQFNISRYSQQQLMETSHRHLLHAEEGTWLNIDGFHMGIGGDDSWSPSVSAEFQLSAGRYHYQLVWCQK
# ADRA2C: Alpha-2C adrenergic receptor (ADRA2C, Homo sapiens, UniProt P18825)
# UniProt P18825, sequence (whole entry, looked up): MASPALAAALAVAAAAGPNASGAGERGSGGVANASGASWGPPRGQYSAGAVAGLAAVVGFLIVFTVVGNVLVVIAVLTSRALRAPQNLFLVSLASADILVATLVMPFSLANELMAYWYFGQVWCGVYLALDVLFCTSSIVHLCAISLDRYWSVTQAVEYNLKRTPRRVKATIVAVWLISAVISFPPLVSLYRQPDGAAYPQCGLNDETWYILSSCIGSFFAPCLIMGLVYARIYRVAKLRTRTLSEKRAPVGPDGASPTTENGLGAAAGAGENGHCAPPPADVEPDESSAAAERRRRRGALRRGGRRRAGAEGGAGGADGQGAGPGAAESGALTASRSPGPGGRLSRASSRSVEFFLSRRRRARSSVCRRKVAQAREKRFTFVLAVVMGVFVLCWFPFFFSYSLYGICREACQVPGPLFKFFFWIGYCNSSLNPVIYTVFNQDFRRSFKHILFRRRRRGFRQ
# HDAC1: Histone deacetylase 1 (HDAC1, Homo sapiens, UniProt Q13547)
# UniProt Q13547, sequence (whole entry, looked up): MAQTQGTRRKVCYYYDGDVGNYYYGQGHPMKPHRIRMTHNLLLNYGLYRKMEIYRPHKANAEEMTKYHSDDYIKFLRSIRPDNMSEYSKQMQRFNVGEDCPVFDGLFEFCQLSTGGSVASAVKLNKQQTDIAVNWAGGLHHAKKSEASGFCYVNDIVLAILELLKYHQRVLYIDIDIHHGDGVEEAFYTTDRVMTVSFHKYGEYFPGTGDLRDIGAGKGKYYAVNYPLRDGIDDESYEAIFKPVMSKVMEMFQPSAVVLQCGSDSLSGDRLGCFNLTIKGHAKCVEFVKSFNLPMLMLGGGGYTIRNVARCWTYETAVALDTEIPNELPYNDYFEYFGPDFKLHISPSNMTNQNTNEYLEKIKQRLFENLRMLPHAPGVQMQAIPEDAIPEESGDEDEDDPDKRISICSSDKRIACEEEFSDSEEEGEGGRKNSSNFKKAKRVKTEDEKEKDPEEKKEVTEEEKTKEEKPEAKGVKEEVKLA
# UniProt P14416, sequence (whole entry, looked up): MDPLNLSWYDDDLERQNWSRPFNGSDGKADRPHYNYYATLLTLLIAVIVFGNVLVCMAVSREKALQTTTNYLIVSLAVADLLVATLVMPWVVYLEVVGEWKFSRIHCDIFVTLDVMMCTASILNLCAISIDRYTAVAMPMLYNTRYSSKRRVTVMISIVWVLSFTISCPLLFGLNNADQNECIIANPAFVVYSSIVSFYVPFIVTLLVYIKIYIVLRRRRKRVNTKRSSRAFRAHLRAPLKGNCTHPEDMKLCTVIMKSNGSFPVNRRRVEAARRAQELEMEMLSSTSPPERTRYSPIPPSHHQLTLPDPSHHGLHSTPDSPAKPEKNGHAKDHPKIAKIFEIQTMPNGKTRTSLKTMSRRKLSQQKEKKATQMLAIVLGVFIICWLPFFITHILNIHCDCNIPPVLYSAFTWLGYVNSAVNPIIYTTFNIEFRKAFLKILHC
# UniProt Q8BYF6, sequence (whole entry, looked up): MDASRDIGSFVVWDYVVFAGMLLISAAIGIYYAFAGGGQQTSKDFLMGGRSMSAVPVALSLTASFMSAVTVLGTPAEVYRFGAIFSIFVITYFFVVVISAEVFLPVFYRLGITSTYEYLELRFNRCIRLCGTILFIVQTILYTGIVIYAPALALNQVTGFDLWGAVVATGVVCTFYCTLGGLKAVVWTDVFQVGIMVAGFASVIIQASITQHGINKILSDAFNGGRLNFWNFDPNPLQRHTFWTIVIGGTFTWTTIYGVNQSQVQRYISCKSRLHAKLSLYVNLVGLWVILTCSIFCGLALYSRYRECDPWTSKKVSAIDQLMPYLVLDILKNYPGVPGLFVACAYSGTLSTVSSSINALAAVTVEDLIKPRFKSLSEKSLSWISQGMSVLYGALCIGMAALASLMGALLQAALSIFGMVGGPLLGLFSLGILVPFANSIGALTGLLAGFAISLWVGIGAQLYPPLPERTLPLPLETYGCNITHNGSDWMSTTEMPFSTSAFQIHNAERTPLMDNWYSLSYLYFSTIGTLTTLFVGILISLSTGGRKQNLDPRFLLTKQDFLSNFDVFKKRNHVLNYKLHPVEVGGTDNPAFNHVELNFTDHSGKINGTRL
# UniProt Q7RTT9, sequence (whole entry, looked up): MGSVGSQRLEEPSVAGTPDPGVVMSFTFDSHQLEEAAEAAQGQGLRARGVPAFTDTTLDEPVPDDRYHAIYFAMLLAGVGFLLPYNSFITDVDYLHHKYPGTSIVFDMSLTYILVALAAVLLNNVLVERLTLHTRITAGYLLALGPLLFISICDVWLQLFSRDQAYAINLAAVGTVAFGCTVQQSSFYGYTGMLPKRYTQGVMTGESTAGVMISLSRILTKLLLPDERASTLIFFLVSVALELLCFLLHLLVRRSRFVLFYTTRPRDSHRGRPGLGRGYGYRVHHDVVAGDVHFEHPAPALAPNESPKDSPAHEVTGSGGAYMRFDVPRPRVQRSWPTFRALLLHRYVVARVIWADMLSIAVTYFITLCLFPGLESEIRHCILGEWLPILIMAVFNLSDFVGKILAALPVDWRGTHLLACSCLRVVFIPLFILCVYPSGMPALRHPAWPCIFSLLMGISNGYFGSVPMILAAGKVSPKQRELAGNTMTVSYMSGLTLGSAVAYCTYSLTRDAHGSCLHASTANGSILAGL
# UniProt O60733, sequence (whole entry, looked up): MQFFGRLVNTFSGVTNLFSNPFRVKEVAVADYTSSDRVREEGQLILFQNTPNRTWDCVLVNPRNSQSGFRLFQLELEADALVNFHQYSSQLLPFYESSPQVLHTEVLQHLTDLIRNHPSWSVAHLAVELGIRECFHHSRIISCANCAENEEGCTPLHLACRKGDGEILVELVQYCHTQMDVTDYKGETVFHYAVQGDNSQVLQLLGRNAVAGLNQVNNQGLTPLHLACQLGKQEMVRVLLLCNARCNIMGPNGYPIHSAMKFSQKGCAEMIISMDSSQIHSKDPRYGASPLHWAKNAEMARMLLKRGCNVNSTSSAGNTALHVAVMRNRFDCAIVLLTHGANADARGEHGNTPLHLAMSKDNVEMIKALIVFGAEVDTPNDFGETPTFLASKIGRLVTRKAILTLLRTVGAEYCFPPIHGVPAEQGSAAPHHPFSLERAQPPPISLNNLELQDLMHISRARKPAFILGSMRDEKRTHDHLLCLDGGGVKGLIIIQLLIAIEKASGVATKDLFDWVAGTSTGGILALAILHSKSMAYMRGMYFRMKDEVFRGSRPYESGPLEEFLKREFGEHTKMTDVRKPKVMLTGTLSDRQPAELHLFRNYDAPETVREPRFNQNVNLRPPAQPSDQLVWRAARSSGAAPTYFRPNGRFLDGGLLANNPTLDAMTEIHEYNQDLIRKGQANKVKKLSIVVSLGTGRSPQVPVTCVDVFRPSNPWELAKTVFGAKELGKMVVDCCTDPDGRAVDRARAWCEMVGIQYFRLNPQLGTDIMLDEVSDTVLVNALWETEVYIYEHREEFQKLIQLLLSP
Compound,tested on,assay,system,setting,scale,quantity,value
O=C(Oc1ccc([N+](=O)[O-])cc1)N1CCC(C(O)(c2ccc3c(c2)OCO3)c2ccc3c(c2)OCO3)CC1,"Mgll (Mus musculus, UniProt O35678)",2-AG hydrolysis,"mouse, brain membranes","intraperitoneal, 16 mg/kg, 24 h",,inhibition,> 80%
Cn1c(=O)c2c(ncn2CC(=O)N/N=C/c2ccc3c(c2)OCO3)n(C)c1=O,ACHE,"enzyme activity, inhibitor, Ellman",,25 µM,,inhibition,73.6%
C[n+]1ccc(-c2ccccc2)cc1,"SLC29A4 (Homo sapiens, UniProt Q7RTT9)","substrate, radiolabelled uptake",MDCK expressing YFP-tagged SLC29A4,"1 min, 37 °C, vector background subtracted",,Vmax,0.62 ± 0.05 nmol/mg protein/min
O=C(O)C(=O)CBr,"Sodium-coupled monocarboxylate transporter 1 (Slc5a8, Mus musculus, UniProt Q8BYF6)",nicotinate uptake,HRPE expressing Slc5a8,"1 mM, 15 min, mouse, together with: [14C]nicotinate 15 µM",,inhibition,98%
O=C(C1CCN(S(=O)(=O)c2cccc3cccnc23)CC1)N1CCn2c1nc1ccccc12,lacZ,,,concentration not given,,inhibition,92%
Cc1ccc(Nc2ccc3c(c2)C(c2ccccc2F)=NC(C)C(=O)N3)cc1 (centres unmarked),ADRA2C,"ligand displacement, radioligand",,10 µM,,inhibition,59%
C=C(C)[C@H](CC=C(C)C)Cc1c(O)cc(OC)c2c1O[C@H](c1ccc(O)cc1O)CC2=O,"DRD2 (Homo sapiens, UniProt P14416)",,,50 µM,,inhibition,> 70%
Cc1nc2sccn2c(=O)c1CCN1CCC(=C(c2ccccc2)c2ccc(F)cc2)CC1,"HTR2A (Homo sapiens, UniProt P28223)","agonist response, antagonist",,"10 µM, together with: reference agonist at EC90",,inhibition,99.9%
Cn1c(=O)c2c(ncn2CC(=O)OCc2cn(-c3cc(=O)oc4ccccc34)nn2)n(C)c1=O,ACHE,"enzyme activity, inhibitor, Ellman",,25 µM,,inhibition,> 75%
[123I]c1cncc(OC[C@@H]2CCN2)c1,,SPECT,"human, brain cortex","intravenous bolus, 2.1 mCi",relative to: plasma,tissue/plasma ratio,13.9
CCCC1OC(=O)C1CCCCc1ccc2ccccc2c1 (centres unmarked),"PLA2G6 (Homo sapiens, UniProt O60733)",enzyme activity,,0.091 mole fraction,,inhibition,97 to 100%
CC1N=C(c2ccccc2F)c2cc(Nc3ccc(C(F)(F)F)cc3)ccc2NC1=O (centres unmarked),ADRA2C,"ligand displacement, radioligand",,10 µM,,inhibition,34%
Cc1ncc2n1-c1ccc(Cl)cc1C(c1ccccc1F)=NC2,,,"healthy men, plasma","oral, 7.5 mg, day 26, arithmetic mean, together with: 14 days post amenamevir",,AUC(0-inf),130 ng·h/mL
O=C(/C=C/c1ccc(OCc2ccccc2)cc1)c1ccc(OCc2ccccc2)cc1,ACHE,"enzyme activity, inhibitor",,concentration not given,,inhibition,82.1%
NNC(=O)Cn1c2ccccc2c2cn[nH]c(=O)c21,MCF7,"RT-PCR, refers to: PUMA",,"5 µM, 48 h, normalised to β-actin",relative to: untreated,fold change,6.88
CC1N=C(c2ccccc2F)c2cc(Nc3ccccc3)ccc2NC1=O (centres unmarked),ADRA2C,"ligand displacement, radioligand",,10 µM,,inhibition,84%
CC(C)(C)c1cnc(CSc2cnc(NC(=O)C3CCNCC3)s2)o1,"CDK6 (Homo sapiens, UniProt Q00534)","probe labeling, KiNativ live-cell profiling",MOLT-4,0.25 µM,,inhibition,> 50%
CCN1C(=O)C=CC1=O,"Ace (Anopheles gambiae, UniProt Q869C3)",enzyme activity,,"100 µM, 30 min, after 10-fold dilution",,inhibition,14 ± 4%
CSCC[C@H](NC(=O)OCC1c2ccccc2-c2ccccc21)C(=O)O,"Cholinesterase (BCHE, Equus caballus, UniProt P81908)","enzyme activity, Ellman method",,"200 µM, 2% methanol",,inhibition,≤ 10%
O=c1c2ccccc2[se]n1-c1ccccc1,"Genome polyprotein, NS3 helicase domain (Hepatitis C virus genotype 1b, UniProt Q9WMX2)","NS3 helicase RNA binding, fluorescence polarization",,"concentration not given, highest tested concentration, together with: 50 µM thiol (DTT, β-mercaptoethanol or cysteine)",,inhibition,< 50%
C[C@@H]1CCCC(=O)CCCC(=O)Cc2cc(O)cc(O)c2C(=O)O1,"OPRD1 (Homo sapiens, UniProt P41143)","ligand displacement, radioligand",,10 µM,,inhibition,-60.3%
CC1N=C(c2ccccc2F)c2cc(Nc3ccc(C#N)cc3)ccc2NC1=O (centres unmarked),ADRA2C,"ligand displacement, radioligand",,10 µM,,inhibition,47%
Nc1ncnc2c1ncn2[C@@H]1O[C@H](COP(=O)(O)OP(=O)(O)OP(O)(O)=S)[C@@H](O)[C@H]1O,"CTP synthase (pyrG, Mycobacterium tuberculosis, UniProt P9WHK7)","ATP probe labelling, competitor, chemoproteomics","Mycobacterium tuberculosis, lysate",500 µM,relative to: untreated,fold change,4.67 fold
O=C(NCc1ccc(-c2ccccc2)cc1)c1coc(-c2ccccc2O)n1,HDAC1,"enzyme activity, inhibitor",,20 µM,,inhibition,> 50%
CN[C@@](C)(C[18F])C(=O)O,SK-OV-3 tumour model,,"host not given, heart","2 h, tumour-bearing",,tracer uptake,2.3 %ID/g
CC1N=C(c2ccccc2F)c2cc(N(C)c3ccccc3)ccc2NC1=O (centres unmarked),ADRA2C,"ligand displacement, radioligand",,10 µM,,inhibition,15%
O=C(Nc1ccccc1)c1coc(-c2ccccc2O)n1,HDAC1,"enzyme activity, inhibitor",,20 µM,,inhibition,> 50%
CC1N=C(c2ccccc2F)c2cc(Nc3ccc(S(C)(=O)=O)cc3)ccc2NC1=O (centres unmarked),ADRA2C,"ligand displacement, radioligand",,10 µM,,inhibition,7%
COc1cc(/C=N/NC(=O)Cn2cnc3c2c(=O)n(C)c(=O)n3C)ccc1O,ACHE,"enzyme activity, inhibitor, Ellman",,25 µM,,inhibition,> 75%
C[C@H]1CNCCc2ccc(Cl)cc21,,,"male Sprague-Dawley rat, plasma","subcutaneous, 0.5 mg/kg, single dose",,half-life,2.39 h
O=C(Nc1ccc(-c2ccccc2)cc1)c1coc(-c2ccccc2O)n1,HDAC1,"enzyme activity, inhibitor",,20 µM,,inhibition,> 50%
CP(=O)(O)CCC(N)C(=O)O (centres unmarked),Chenopodium album,,,"500 g/ha, 13 days, CHEAL, post-emergence spray","relative to: untreated (0%), complete kill (100%)",herbicidal activity,100%
CC1N=C(c2ccccc2F)c2cc(NCc3ccccc3)ccc2NC1=O (centres unmarked),ADRA2C,"ligand displacement, radioligand",,10 µM,,inhibition,47%
O=C(C1CCN(S(=O)(=O)c2cnc[nH]2)CC1)N1CCn2c1nc1ccccc12,lacZ,,,concentration not given,,inhibition,35%
COc1ccsc1CNCC[C@@]1(c2ccccn2)CCOC2(CCCC2)C1,,,"healthy human, normal hepatic function, plasma","intravenous, 1 mg single dose, geometric mean",,AUC(0-inf),23.7 ng·h/mL
CNC(C)Cc1ccc2c(c1)OCO2 (racemic),,"visual analog scale, refers to: Stimulated",human,"oral, 0.75 mg/kg, mean over session, unit not given",relative to: pre-dose baseline,mood rating,19.2
CC(C)c1ccc2c(c1)CC[C@H]1[C@](C)(CN)CCC[C@]21C,WM-115,"cell growth or viability, MTS",,48 h,,IC50,3.17 µM
NCc1ccc(C(F)(F)F)cc1,"folP (Staphylococcus aureus, UniProt O05701)",enzyme activity,,250 µM,,inhibition,no inhibition
O=C([O-])c1c(Cl)c(Cl)c(Cl)c(Cl)c1-c1c2cc(I)c(=O)c(I)c-2oc2c(I)c([O-])c(I)cc12.[Na+].[Na+],"Alpha-methylacyl-CoA racemase (AMACR, Homo sapiens, UniProt Q9UHK6)","enzyme activity, inhibitor, tritiated water release",,"100 µM, 30 min, 37 °C, high-throughput screen, together with: [2,3-3H]pristanoyl-CoA",,inhibition,≥ 20%
COc1ccc(Nc2ccc3c(c2)C(c2ccccc2F)=NC(C)C(=O)N3)cc1 (centres unmarked),ADRA2C,"ligand displacement, radioligand",,10 µM,,inhibition,55%
c1ccc(CCN2CCCCC2)cc1,"5-hydroxytryptamine receptor 2A (Rattus norvegicus, UniProt P14842)","ligand displacement, radioligand",,,,Ki,> 10 µM

# For quick reference, copied from above:
Compound,tested on,assay,system,setting,scale,quantity,value
O=C(Nc1ccccc1)c1coc(-c2ccccc2O)n1,HDAC1,"enzyme activity, inhibitor",,20 µM,,inhibition,> 50%
CC1N=C(c2ccccc2F)c2cc(Nc3ccc(S(C)(=O)=O)cc3)ccc2NC1=O (centres unmarked),ADRA2C,"ligand displacement, radioligand",,10 µM,,inhibition,7%
COc1cc(/C=N/NC(=O)Cn2cnc3c2c(=O)n(C)c(=O)n3C)ccc1O,ACHE,"enzyme activity, inhibitor, Ellman",,25 µM,,inhibition,> 75%
C[C@H]1CNCCc2ccc(Cl)cc21,,,"male Sprague-Dawley rat, plasma","subcutaneous, 0.5 mg/kg, single dose",,half-life,2.39 h
O=C(Nc1ccc(-c2ccccc2)cc1)c1coc(-c2ccccc2O)n1,HDAC1,"enzyme activity, inhibitor",,20 µM,,inhibition,> 50%
